Measured values of several laboratories.
Each line is one published result; not all experiments were run side by side. “And” joins repeats or separate records; there may be more than shown. ± marks the error that the study gave.
ERBB2: Receptor tyrosine-protein kinase erbB-2 (ERBB2, Homo sapiens, UniProt P04626)
Sequence of UniProt Q3TRM4 (whole entry, looked up): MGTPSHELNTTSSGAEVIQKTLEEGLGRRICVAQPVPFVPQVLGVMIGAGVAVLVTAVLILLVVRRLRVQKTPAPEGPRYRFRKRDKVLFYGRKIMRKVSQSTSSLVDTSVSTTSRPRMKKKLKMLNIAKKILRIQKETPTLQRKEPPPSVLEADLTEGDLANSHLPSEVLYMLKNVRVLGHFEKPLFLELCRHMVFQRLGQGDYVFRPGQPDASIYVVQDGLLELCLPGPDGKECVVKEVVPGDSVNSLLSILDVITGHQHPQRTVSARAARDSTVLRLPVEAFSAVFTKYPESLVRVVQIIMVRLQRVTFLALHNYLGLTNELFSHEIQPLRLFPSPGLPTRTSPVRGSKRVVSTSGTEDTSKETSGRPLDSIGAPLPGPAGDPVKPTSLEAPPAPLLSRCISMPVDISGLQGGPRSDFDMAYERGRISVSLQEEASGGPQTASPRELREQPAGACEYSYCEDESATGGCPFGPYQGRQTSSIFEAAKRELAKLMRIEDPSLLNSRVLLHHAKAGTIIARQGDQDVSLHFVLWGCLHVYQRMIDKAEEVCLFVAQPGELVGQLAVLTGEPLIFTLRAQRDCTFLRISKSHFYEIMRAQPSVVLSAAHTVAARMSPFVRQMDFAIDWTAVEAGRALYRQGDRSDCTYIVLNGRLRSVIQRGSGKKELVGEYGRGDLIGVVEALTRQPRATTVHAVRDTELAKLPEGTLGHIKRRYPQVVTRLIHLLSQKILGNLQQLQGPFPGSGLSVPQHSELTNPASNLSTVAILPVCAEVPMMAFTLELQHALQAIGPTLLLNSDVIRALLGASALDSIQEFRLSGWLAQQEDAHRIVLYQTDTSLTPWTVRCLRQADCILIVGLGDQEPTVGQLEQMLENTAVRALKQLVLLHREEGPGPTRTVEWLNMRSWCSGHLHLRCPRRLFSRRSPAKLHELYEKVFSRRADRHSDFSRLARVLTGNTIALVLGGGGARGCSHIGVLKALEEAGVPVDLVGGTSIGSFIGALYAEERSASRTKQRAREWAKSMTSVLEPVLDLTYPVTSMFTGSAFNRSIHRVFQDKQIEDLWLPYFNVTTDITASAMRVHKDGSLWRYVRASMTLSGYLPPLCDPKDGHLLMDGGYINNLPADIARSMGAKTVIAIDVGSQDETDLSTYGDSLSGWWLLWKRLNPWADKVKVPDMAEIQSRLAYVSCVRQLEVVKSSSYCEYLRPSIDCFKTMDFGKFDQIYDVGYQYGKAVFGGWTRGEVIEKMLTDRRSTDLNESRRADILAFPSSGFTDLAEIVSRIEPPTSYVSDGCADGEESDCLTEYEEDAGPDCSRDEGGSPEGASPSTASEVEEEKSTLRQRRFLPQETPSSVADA
Sequence of UniProt Q9UH17 (whole entry, looked up): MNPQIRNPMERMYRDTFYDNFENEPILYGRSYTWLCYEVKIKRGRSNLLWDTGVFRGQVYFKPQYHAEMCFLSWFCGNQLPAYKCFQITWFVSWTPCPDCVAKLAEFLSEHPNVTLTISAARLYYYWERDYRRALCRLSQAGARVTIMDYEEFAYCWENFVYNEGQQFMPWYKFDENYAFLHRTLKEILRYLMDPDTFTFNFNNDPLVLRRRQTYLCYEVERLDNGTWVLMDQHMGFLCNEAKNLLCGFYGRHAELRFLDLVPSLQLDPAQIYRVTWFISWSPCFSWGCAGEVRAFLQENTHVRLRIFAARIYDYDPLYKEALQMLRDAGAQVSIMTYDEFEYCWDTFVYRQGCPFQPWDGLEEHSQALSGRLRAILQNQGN
Sequence of UniProt P28222 (whole entry, looked up): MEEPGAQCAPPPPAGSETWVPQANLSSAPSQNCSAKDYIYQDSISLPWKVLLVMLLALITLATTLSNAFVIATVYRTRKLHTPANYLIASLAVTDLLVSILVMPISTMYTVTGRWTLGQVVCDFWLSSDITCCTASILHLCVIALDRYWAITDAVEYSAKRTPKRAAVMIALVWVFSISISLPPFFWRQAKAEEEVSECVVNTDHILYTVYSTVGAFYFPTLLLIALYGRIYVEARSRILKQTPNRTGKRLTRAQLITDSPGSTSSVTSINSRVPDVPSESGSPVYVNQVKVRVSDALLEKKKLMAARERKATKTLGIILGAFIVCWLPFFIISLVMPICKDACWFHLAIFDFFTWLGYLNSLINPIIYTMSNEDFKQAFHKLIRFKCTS
Sequence of UniProt Q13882 (whole entry, looked up): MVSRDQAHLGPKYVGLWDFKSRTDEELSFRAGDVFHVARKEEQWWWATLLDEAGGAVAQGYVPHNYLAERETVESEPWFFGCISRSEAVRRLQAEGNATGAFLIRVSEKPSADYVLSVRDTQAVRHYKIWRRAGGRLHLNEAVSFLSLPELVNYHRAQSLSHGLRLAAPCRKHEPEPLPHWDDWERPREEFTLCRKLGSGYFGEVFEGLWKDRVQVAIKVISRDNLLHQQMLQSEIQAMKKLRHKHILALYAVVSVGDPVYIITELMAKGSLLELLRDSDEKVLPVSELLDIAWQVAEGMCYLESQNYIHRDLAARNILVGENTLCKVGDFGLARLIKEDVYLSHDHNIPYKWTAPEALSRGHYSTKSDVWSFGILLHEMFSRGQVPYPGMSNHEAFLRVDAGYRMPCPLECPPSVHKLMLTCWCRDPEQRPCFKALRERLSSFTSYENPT
Sequence of UniProt P28564 (whole entry, looked up): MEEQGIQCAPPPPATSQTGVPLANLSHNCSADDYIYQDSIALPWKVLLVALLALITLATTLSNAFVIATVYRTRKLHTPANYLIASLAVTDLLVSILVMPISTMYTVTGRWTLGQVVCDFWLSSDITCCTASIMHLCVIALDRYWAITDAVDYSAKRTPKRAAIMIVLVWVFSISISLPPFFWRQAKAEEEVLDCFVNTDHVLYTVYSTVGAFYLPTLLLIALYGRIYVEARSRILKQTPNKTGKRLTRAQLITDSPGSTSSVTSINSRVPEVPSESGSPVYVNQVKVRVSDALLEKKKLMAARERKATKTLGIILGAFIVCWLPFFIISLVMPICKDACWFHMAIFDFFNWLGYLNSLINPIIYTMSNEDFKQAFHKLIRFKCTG
Sequence of UniProt P21554 (whole entry, looked up): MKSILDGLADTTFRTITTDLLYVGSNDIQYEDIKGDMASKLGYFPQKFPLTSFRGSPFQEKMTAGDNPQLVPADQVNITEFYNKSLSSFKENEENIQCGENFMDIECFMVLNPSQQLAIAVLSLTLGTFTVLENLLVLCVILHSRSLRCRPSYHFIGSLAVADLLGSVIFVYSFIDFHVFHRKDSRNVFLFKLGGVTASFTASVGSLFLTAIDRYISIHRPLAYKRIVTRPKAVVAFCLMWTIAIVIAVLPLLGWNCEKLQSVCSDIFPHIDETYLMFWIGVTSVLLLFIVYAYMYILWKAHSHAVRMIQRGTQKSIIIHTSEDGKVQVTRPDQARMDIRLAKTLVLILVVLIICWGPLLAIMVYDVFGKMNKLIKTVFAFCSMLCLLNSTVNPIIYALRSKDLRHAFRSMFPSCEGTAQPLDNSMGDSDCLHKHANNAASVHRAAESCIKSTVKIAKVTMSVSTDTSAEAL
Sequence of UniProt P34972 (whole entry, looked up): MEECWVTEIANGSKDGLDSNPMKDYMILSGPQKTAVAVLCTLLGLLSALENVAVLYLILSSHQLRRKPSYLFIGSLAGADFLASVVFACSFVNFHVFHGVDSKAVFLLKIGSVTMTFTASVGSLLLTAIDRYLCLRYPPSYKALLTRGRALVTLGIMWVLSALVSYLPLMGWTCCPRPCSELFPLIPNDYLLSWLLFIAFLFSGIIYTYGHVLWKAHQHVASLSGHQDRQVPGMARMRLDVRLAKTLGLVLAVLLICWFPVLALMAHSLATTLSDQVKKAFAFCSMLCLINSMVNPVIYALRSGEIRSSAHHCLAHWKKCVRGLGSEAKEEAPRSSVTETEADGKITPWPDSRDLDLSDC

For `COCC1CCCCN1C(=O)n1cc(C(O)(c2ccccc2)c2ccccc2)nn1` (stereo not drawn), “SILAC activity ratio” read 1.29 and 1.59 and 1.46 and 1.17 and 1.58 and 1.45 (Patatin-like phospholipase domain-containing protein 6 (Mus musculus, UniProt Q3TRM4); probe labelling, inhibitor, competitive ABPP-SILAC, item: Pnpla6; mouse T cells; concentration not given, 4 h, single peptide; relative to: treated over DMSO cells, lower = stronger inhibition).
With `CCOC(=O)[C@@](CC)(CCCSCCOCCOCCNc1ccc([N+](=O)[O-])c2nonc12)NC(=O)c1ccc(C2CC2)c(Cc2ccc(F)cc2)n1` the Ki ratio was 31 (Cannabinoid receptor 2 (CNR2, Homo sapiens, UniProt P34972); radioligand binding; relative to: CB1 over CB2 (human)).
The unmodified protein of `C=CC(=O)Nc1cc(-c2ccc(C(=O)N3CCCC(O)(CC)C3)cc2)ccc1F` (stereo not drawn) is reported as 100% (DNA dC->dU-editing enzyme APOBEC-3B, C-terminal domain (Homo sapiens, UniProt Q9UH17); covalent adduct, intact protein MS; 1 h, 1-fold, 25 µM).
For `O=C1NC(=O)c2c1c1cc(F)c[n+]3c1c1c2c2cc(O)ccc2[n]1[Ru-4]312([N]=C=S)[S+]3CC[S+]1CC[S+]2CC3` (stereo not drawn), the remaining activity was 17% (Vascular endothelial growth factor receptor 1 (FLT1, Homo sapiens, UniProt P17948); enzyme activity; 100 nM, human enzyme, with: 10 µM ATP; relative to: untreated).
`CCn1nc(Cl)c2c1-c1cnc(N)c(c1)O[C@H](C)c1cc(F)ccc1-c1nn(C)cc1C2` has a selectivity ratio of 83 fold (Protein-tyrosine kinase 6 (PTK6, Homo sapiens, UniProt Q13882); kinase activity, inhibitor; relative to: IC50 PTK6 over IC50 ALK).
`CC(C)[C@H]1NC(=O)C[C@H]2/C=C/CCSSC[C@@H](NC1=O)C(=O)N[C@H](Cc1cccc3ccccc13)C(=O)NCC(=O)O2` has an inhibition of 1.6% (ERBB2; enzyme activity, inhibitor; 10 µM).
With `CCO[C@H]1[C@H](O)[C@@H](N)[C@@H](O[C@H]2[C@H](O[C@@H]3O[C@H](CO)[C@@H](O[C@H]4O[C@@H](CN)[C@@H](O)[C@H](O)[C@H]4N)[C@H]3O)[C@@H](O)[C@H](N)C[C@@H]2N)O[C@@H]1CO` the specific binding was 0% (5-hydroxytryptamine receptor 1B (Htr1b, Rattus norvegicus, UniProt P28564); radioligand binding; 10 µM, 1% DMSO).
`CN(C)[C@H]1C[C@@]23CC[C@@]4(O2)C(=CC[C@]2(C)[C@@H](c5ccc6ccncc6c5)CC[C@H]24)C=C3[C@@H](O)[C@@H]1O` has an inhibition of -5.4% (Mitogen-activated protein kinase kinase kinase kinase 3 (MAP4K3, Homo sapiens, UniProt Q8IVH8); ATP probe labelling, inhibitor, KiNativ profiling; 1 µM).
For `O=C(O)c1ccc(/N=N/c2cccc([B-](F)(F)F)c2)cc1.[K+]`, the switching factor was 7 ± 2.5 (Chymotrypsinogen A (Bos taurus, UniProt P00766); enzyme activity, inhibitor; with: Suc-AAPF-AMC; relative to: Ki cis over Ki trans).
`CCc1nnc(-c2c(OC)cc(-c3cnc4cc(-c5cnn(C)c5)ccn34)cc2OC)o1` gave a remaining binding of 122% (5-hydroxytryptamine receptor 1B (HTR1B, Homo sapiens, UniProt P28222); antagonist radioligand, radioligand binding; 10 µM, SafetyScreen44 5-HT1B mean; lower = stronger displacement).
For `COC(=O)[C@@H](NC(=O)c1nn(Cc2ccc(F)cc2)c2cc(OCCCCNC(=N)N)ccc12)C(C)(C)C`, the maximal efficacy was 176% (Cannabinoid receptor 1, with Gi1 (CNR1, Homo sapiens, UniProt P21554); GTP turnover, agonist, item: Gi1 Gα subtype).
`CS(C)(=O)=Nc1ccc(-c2ccc(-c3nc4cc(O[C@@H]5CO[C@H]6[C@@H]5OC[C@H]6O)[nH]c4cc3F)cc2)cc1` has an inhibition of -14% (ERBB2; enzyme activity, inhibitor; 10 µM).

Some of these lines once more:
`CCc1nnc(-c2c(OC)cc(-c3cnc4cc(-c5cnn(C)c5)ccn34)cc2OC)o1` gave a remaining binding of 122% (5-hydroxytryptamine receptor 1B (HTR1B, Homo sapiens, UniProt P28222); antagonist radioligand, radioligand binding; 10 µM, SafetyScreen44 5-HT1B mean; lower = stronger displacement).
